Measurements collected from several papers.
A part holds a random share of what one study measured.
UniProt P14416, sequence (whole entry, looked up): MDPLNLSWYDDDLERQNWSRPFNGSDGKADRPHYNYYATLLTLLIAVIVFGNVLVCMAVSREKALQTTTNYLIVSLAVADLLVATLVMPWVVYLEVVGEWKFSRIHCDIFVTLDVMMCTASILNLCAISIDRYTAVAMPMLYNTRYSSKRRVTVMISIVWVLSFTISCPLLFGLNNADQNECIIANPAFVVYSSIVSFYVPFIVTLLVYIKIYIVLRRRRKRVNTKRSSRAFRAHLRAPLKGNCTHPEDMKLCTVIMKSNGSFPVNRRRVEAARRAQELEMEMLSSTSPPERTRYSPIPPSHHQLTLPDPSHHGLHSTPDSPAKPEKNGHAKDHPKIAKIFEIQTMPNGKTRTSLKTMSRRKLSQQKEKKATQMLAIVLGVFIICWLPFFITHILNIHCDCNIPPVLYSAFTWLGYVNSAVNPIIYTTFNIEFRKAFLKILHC

Set 1 — cell line: A-375; tested at: 100 µM; time: 36 h; measurement: viability
SMILES = CC(CCc1ccccc1)NCC(O)c1ccc(O)c(C(N)=O)c1 (stereo not shown); result = 103%
SMILES = CCC[C@@H]1C[C@@H](C(=O)N[C@@H]([C@H]2O[C@H](SC)[C@H](OP(=O)(O)O)[C@@H](O)[C@H]2O)[C@H](C)Cl)N(C)C1; result = 82.5%
SMILES = CC1=C(/C=C/C(C)=C/C=C/C(C)=C/CO)C(C)(C)CCC1; result = 33.6%
SMILES = CC[C@@H](CO)NCCN[C@@H](CC)CO; result = 95.8%
SMILES = N=C(N)N; result = 114%
SMILES = C[C@H](CCC(=O)O)[C@H]1CC[C@H]2[C@@H]3[C@@H](O)C[C@@H]4C[C@H](O)CC[C@]4(C)[C@H]3CC[C@]12C; result = 111%
SMILES = CCOC(=O)[C@H](CCc1ccccc1)N[C@@H](C)C(=O)N1Cc2ccccc2C[C@H]1C(=O)O; result = 106%
SMILES = CC1(C)O[C@H]2CC(=O)OC[C@]23[C@H]2CC[C@@]4(C)[C@H](c5ccoc5)OC(=O)[C@H]5O[C@]54[C@]2(C)C(=O)C[C@@H]13; result = 119%
SMILES = O=C(O)COC(=O)Cc1ccccc1Nc1c(Cl)cccc1Cl; result = 79.6%
SMILES = CCCCC(=O)N(Cc1ccc(-c2ccccc2-c2nnn[nH]2)cc1)[C@H](C(=O)O)C(C)C; result = 95%
SMILES = O=C1NCC2(CCN(CCc3ccccc3)CC2)O1; result = 127%
SMILES = CN1CCc2c(c3ccccc3n2Cc2ccccc2)C1; result = 117%
SMILES = CN1CCN(CCCN2c3ccccc3Sc3ccc(C(F)(F)F)cc32)CC1; result = -0.978%

Set 2 — species: human; matrix: microsomes or S9; tested at: 2 µM; time: 0.5 h; measurement: remaining compound
SMILES = COCCOc1cc(=O)n2c(c1C(=O)NC1CCCCC1)CCOCC2; result = 64%
SMILES = Cc1ccc2c(-c3cn4c(C)c(C)sc4n3)c(C)[nH]c2c1; result = 52.9%
SMILES = Clc1ccc2c(c1)nc(-c1cccnc1Cl)n1ncc(Br)c21; result = > 100%
SMILES = CCOc1ccc2nc(NC(=O)CN(C)S(=O)(=O)c3ccc(Br)s3)sc2c1; result = 13.9%
SMILES = CCN(CC)S(=O)(=O)c1ccc(NC(=O)CN(c2cc(C)ccc2C)S(C)(=O)=O)cc1; result = 1.39%
SMILES = CN(C)CCCn1c(-c2ccccc2)c(-c2ccccc2)c2c1ncn1nc(-c3ccncc3)nc21; result = 46.6%
SMILES = Cc1cc(C(=O)Nc2nnc(Cc3cccs3)o2)n(C)n1; result = 65.4%
SMILES = Cc1[nH]c(C(=O)NCc2ccc3c(c2)OCO3)c(C)c1S(=O)(=O)N1CCCCCC1; result = 83%
SMILES = COc1ccc(C)cc1NC(=O)c1cc2ccc3cccnc3c2[nH]1; result = 7.56%
SMILES = Cc1ccc2c(c1)Oc1cc(Cl)c(S(=O)(=O)N3CCc4ccccc4C3)cc1C(=O)N2; result = 3.83%
SMILES = COC(=O)c1c(NS(C)(=O)=O)sc2c1CCCC2; result = 4.25%
SMILES = COc1ccc(-n2ccc3cc(NC(=O)N4CCCCC4)ccc32)cc1Cl; result = 62.9%
SMILES = CCCn1ccnc1C1CC(=O)Nc2cc(O)c(OC)cc21 (stereo not shown); result = 93.7%
SMILES = CSc1cc(=O)oc2c(Cl)ccc(Cl)c12; result = 63.6%
SMILES = Cn1cc(-c2n[nH]c(=O)c3ccccc23)c2ccccc21; result = 31.1%
SMILES = CCCOc1ccccc1-c1nc2nn[nH]c2c(=O)[nH]1; result = 91%

Set 3 — effect on: enzyme activity; action: inhibitor; tested at: 0.5 µM; relative to: control; measurement: remaining activity
Target: Testis-specific serine/threonine-protein kinase 1 (TSSK1B, Homo sapiens, UniProt Q9BXA7)
UniProt Q9BXA7, sequence (whole entry, looked up): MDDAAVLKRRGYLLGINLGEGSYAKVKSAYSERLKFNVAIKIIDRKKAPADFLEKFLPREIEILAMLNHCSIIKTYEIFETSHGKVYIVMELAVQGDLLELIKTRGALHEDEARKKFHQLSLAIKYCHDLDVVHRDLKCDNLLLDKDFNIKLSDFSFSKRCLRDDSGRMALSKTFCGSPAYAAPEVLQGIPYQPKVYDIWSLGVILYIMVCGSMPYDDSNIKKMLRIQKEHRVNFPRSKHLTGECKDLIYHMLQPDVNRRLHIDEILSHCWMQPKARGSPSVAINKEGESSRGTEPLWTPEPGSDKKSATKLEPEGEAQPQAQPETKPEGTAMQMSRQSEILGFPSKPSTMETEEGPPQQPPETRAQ
SMILES = Cc1ccc(NC(=O)c2ccc(CN3CCN(C)CC3)cc2)cc1Nc1nccc(-c2cccnc2)n1; result = 97%
SMILES = CN(C)CCCn1cc(C2=C(c3c[nH]c4ccccc34)C(=O)NC2=O)c2ccccc21; result = 89.8%
SMILES = O=C(Nc1ccc(Cl)cc1)c1ccccc1NCc1ccncc1; result = 103%
SMILES = CCN1/C(=C/C(C)=O)Sc2ccc(OC)cc21; result = 110%
SMILES = Cc1nc(Nc2ncc(C(=O)Nc3c(C)cccc3Cl)s2)cc(N2CCN(CCO)CC2)n1; result = 93.8%
SMILES = CC(=O)O/N=C1/C(c2c(O)[nH]c3cc(Br)ccc23)=Nc2ccccc21; result = 92.4%
SMILES = CCC(=O)Nc1ccc2ncnc(Nc3cccc(Br)c3)c2c1; result = 73.2%
SMILES = CC(C)[C@H](CO)Nc1nc(Nc2cccc(Cl)c2)c2ncn(C(C)C)c2n1; result = 102%
SMILES = COc1cc2ncnc(Nc3ccc(OCc4ccccc4)cc3)c2cc1OC; result = 106%
SMILES = CS(=O)(=O)CCNCc1ccc(-c2ccc3ncnc(Nc4ccc(OCc5cccc(F)c5)c(Cl)c4)c3c2)o1; result = 79%
SMILES = C[S+]([O-])c1ccc(-c2nc(-c3ccncc3)c(-c3ccc(F)cc3)[nH]2)cc1 (stereo not shown); result = 108%
SMILES = CC(C)c1nn(-c2c(Cl)cccc2Cl)c2nc(Cc3ccc(OCCO)cc3)[nH]c(=O)c12; result = 104%
SMILES = COc1cc2ncc(-c3ccccc3)nc2cc1OC; result = 94.5%
SMILES = CCOc1cc2ncnc(Nc3cccc(Br)c3)c2cc1OCC; result = 92.9%
SMILES = Cn1cnc2cc3c(Nc4cccc(Br)c4)ncnc3cc21; result = 104%
SMILES = O=C1NC(=O)/C(=C/c2ccc3nccnc3c2)S1; result = 78.6%
SMILES = Nc1[nH]nc2nnc(-c3c(-c4ccccc4)nn4ccccc34)cc12; result = 102%
SMILES = O=c1cc(N2CCOCC2)oc2c1ccc1ccccc12; result = 101%
SMILES = COc1ccc(Cl)cc1NC(=O)Nc1cc(C)nc2ccccc12; result = 94.6%
SMILES = COc1ccc(-c2cnc3c(-c4ccsc4)cnn3c2)cc1; result = 99.1%
SMILES = COc1cc2ncnc(N3CCN(C(=O)Nc4ccc(Oc5ccccc5)cc4)CC3)c2cc1OC; result = 65.2%
SMILES = Cn1cc(/C=C2\C(=O)Nc3ccc(S(N)(=O)=O)cc32)c2ccccc21; result = 17%

Further values, each from its own experiment
SMILES = CNC(=O)Nc1ccc2c(c1)CC[C@]21OC(=O)N(CC(=O)N(Cc2ccc(F)cc2)[C@@H](C)C(F)(F)F)C1=O; target = D(2) dopamine receptor (DRD2, Homo sapiens, UniProt P14416); effect on = ligand displacement; tested at = 10 µM; measurement = inhibition; result = 15.5%

A few entries again (set 3):
SMILES = O=C(Nc1ccc(Cl)cc1)c1ccccc1NCc1ccncc1; result = 103%
SMILES = CCN1/C(=C/C(C)=O)Sc2ccc(OC)cc21; result = 110%
SMILES = Cc1nc(Nc2ncc(C(=O)Nc3c(C)cccc3Cl)s2)cc(N2CCN(CCO)CC2)n1; result = 93.8%
SMILES = CC(=O)O/N=C1/C(c2c(O)[nH]c3cc(Br)ccc23)=Nc2ccccc21; result = 92.4%
SMILES = CCC(=O)Nc1ccc2ncnc(Nc3cccc(Br)c3)c2c1; result = 73.2%
SMILES = CC(C)[C@H](CO)Nc1nc(Nc2cccc(Cl)c2)c2ncn(C(C)C)c2n1; result = 102%
SMILES = COc1cc2ncnc(Nc3ccc(OCc4ccccc4)cc3)c2cc1OC; result = 106%
